Assay results collected from several papers.
Parts stem from different laboratories: compare values within a part only.
UniProt O14920, sequence (whole entry, looked up): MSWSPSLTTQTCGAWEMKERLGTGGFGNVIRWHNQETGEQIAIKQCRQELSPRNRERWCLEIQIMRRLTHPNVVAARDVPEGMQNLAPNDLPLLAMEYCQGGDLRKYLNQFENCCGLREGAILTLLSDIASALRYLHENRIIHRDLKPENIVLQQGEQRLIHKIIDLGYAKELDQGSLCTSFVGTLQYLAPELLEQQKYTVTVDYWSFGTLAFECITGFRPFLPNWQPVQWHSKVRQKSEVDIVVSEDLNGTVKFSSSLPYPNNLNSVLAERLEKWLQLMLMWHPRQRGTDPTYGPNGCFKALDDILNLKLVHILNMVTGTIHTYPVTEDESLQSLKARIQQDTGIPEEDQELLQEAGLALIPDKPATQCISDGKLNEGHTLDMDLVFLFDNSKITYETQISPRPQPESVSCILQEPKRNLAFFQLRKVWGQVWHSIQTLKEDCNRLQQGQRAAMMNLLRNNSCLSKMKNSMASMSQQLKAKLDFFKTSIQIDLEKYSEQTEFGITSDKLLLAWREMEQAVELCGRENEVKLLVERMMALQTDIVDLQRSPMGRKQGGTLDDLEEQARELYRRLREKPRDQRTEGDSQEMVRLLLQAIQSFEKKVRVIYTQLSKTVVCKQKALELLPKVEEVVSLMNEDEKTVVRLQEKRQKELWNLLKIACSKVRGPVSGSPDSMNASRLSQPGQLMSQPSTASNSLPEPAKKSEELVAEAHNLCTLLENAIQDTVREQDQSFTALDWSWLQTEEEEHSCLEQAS
UniProt P51955, sequence (whole entry, looked up): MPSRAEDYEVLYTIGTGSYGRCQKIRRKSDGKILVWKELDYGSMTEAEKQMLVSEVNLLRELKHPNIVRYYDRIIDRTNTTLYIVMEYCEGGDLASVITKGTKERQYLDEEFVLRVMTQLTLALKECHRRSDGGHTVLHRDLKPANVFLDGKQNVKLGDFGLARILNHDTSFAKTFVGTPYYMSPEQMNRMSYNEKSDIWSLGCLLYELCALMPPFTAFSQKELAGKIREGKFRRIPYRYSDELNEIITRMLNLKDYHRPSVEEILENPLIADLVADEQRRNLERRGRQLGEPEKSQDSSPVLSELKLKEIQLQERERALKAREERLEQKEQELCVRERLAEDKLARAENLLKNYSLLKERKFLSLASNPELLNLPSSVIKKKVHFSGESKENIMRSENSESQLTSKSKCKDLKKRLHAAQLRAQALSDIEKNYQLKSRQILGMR
UniProt Q12852, sequence (whole entry, looked up): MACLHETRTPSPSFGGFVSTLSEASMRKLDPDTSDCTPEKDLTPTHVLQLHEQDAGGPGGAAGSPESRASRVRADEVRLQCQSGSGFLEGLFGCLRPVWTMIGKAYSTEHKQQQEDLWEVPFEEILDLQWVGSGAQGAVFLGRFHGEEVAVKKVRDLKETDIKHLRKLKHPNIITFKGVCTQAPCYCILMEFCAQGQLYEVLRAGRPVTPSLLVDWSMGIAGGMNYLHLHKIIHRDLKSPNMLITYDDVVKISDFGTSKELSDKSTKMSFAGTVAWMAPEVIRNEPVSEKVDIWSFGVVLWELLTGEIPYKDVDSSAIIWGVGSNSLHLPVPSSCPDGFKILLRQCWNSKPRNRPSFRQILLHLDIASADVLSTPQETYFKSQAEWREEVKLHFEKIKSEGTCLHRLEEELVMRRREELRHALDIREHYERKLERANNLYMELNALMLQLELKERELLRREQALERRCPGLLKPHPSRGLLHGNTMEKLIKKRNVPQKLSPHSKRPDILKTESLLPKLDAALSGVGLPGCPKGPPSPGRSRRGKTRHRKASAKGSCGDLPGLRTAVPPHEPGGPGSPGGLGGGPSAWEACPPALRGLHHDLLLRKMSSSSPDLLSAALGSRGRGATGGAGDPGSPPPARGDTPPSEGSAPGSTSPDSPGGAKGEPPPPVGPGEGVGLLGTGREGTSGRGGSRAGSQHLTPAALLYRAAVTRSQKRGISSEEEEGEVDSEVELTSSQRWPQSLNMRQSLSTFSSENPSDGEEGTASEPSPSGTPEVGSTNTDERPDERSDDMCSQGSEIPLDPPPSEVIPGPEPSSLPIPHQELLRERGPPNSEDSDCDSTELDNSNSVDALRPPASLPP
UniProt Q8IWQ3, sequence (whole entry, looked up): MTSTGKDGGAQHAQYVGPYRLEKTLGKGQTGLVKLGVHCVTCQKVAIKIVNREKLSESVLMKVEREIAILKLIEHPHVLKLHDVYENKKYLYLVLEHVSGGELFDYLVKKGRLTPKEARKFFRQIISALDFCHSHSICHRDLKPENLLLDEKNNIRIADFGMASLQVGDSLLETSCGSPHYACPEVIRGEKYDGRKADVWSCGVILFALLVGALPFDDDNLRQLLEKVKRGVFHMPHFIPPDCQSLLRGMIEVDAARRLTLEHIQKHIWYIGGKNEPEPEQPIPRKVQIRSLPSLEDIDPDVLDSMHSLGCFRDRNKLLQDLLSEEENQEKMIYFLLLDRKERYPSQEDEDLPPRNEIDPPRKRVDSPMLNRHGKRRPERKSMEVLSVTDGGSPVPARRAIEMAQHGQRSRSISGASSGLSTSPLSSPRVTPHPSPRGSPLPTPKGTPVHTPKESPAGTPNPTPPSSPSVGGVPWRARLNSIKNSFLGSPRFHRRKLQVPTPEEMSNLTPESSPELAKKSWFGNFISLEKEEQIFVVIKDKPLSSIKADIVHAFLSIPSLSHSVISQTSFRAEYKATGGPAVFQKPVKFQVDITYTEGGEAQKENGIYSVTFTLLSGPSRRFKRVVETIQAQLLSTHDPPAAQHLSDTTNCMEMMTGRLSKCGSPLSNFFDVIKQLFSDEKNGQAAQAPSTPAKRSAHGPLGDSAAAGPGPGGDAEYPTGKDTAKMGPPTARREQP
UniProt Q92630, sequence (whole entry, looked up): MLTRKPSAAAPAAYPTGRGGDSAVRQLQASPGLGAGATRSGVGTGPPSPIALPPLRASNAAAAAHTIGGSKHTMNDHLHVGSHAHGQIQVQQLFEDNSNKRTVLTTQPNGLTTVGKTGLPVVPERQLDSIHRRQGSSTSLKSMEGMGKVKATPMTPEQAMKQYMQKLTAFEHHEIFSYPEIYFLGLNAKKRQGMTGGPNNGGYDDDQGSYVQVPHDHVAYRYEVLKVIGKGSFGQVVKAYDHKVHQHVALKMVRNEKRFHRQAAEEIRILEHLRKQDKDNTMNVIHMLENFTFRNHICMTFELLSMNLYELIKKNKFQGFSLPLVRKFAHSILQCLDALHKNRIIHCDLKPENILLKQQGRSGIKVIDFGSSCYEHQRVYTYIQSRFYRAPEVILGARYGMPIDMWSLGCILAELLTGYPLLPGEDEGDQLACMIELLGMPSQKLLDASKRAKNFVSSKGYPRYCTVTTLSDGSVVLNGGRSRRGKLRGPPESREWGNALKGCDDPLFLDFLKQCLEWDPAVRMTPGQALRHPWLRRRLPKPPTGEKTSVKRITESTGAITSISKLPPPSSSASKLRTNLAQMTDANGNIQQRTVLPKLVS
UniProt P37173, sequence (whole entry, looked up): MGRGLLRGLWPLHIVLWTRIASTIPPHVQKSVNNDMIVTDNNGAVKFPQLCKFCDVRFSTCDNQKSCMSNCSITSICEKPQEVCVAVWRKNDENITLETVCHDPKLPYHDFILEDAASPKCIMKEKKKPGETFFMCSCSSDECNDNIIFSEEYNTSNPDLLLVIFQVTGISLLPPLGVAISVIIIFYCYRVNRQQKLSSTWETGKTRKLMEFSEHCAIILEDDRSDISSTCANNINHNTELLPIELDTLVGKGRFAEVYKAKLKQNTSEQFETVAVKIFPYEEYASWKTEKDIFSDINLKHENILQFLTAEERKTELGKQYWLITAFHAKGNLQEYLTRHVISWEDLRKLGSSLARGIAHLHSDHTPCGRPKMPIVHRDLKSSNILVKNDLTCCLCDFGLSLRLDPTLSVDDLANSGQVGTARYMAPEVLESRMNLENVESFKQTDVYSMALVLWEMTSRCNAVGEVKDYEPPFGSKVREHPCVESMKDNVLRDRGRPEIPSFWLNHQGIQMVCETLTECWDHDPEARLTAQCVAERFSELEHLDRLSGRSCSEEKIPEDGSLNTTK
UniProt Q02156, sequence (whole entry, looked up): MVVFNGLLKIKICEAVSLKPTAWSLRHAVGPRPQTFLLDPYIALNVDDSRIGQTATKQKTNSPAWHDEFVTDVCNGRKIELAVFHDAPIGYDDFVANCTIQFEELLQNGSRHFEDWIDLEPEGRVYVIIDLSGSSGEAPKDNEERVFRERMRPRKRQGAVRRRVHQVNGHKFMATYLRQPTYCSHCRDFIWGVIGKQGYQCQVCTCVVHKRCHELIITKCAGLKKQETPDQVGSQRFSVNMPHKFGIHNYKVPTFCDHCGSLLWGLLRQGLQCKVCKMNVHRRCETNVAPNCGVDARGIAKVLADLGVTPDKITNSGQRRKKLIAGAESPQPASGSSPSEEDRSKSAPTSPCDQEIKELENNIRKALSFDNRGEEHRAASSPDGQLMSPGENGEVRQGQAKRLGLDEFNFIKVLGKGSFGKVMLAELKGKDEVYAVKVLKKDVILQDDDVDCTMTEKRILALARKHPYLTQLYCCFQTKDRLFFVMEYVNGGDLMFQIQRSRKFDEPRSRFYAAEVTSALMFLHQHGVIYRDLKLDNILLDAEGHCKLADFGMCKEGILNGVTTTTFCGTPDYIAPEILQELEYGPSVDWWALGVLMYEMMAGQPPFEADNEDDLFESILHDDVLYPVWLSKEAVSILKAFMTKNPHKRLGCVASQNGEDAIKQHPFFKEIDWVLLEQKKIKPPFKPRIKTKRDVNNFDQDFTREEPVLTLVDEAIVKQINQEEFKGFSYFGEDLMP
UniProt Q00535, sequence (whole entry, looked up): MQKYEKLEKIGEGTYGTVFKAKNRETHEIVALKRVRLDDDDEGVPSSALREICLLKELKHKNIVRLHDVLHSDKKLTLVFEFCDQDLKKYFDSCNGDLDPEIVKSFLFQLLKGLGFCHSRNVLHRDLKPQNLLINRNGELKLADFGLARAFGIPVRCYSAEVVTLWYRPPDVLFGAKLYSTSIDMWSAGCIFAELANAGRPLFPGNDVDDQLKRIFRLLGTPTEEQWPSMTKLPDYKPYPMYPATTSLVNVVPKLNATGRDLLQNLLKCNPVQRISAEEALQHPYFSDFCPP

Block 1
Target: Histone acetyltransferase KAT6A, both winged helices, GST fusion (KAT6A, Homo sapiens, UniProt Q92794, residues 1-181)
Method: protein binding microarray
Molecule type: double-stranded DNA, one strand shown
Matrix: in vitro
Tested at: not given
Setting: 8-mer, flanks averaged, mean of 2 arrays, mostly near background
Relative to: not given
Direction: higher = stronger binding
Construct (chain): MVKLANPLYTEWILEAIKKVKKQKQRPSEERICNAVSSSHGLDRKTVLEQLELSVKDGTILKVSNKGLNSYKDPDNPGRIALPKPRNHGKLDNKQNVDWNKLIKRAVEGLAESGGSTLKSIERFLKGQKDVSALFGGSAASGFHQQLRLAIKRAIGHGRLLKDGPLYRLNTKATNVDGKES
Sequence	E-score
TAACGAGA	-0.225
AGAAATTA	0.0177
ATGTACTA	-0.175
GGACGTAA	0.0881
AATGAGGC	0.00101
AAAGCACT	-0.178
ACTGAGAG	-0.222
CGTCCTCC	0.0583

Block 2
Target: Microphthalmia-associated transcription factor, full length (MITF, Homo sapiens, UniProt O75030-10, residues 1-413)
Method: protein-binding microarray
Molecule type: double-stranded DNA, one strand shown
Matrix: in vitro
Tested at: not given
Setting: k-mer, scored over probes, only values ≥0.25
Direction: higher = stronger binding
Construct (chain): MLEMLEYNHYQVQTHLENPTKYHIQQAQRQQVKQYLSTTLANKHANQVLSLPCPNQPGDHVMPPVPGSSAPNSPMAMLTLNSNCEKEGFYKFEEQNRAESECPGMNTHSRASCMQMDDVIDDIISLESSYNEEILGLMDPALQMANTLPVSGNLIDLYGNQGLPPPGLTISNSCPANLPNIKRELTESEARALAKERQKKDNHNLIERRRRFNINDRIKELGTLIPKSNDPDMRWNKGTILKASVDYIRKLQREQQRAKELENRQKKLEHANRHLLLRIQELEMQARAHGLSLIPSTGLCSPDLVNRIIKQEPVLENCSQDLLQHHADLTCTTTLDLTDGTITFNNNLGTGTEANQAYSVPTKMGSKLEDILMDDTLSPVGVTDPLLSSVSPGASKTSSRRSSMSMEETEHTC
Sequence	E-score
ACATGAG	0.286
ACACGGG	0.253
CTGTCAC	0.338
GTGATTA	0.287
CAGTCAC	0.308
ACATGTC	0.268
ACGAGGG	0.347
AACGTGA	0.395

Block 3
SMILES: COc1cc2c(Nc3ccc(Br)cc3F)ncnc2cc1OCC1CCN(C)CC1
Read-out: enzyme activity
Action: inhibitor
Tested at: 0.5 µM
Relative to: control
target	remaining activity
Tyrosine-protein kinase Lyn, isoform B (LYN, Homo sapiens, UniProt P07948)	16.7%
NEK2 (Homo sapiens, UniProt P51955)	103%
OXSR1 (Homo sapiens, UniProt O95747)	100%
TGFBR2 (Homo sapiens, UniProt P37173)	102%
STK11 (Homo sapiens, UniProt Q15831)	105%
MAP3K3 (Homo sapiens, UniProt Q99759)	102%
Cyclin-dependent kinase 4, with cyclin D1 (CDK4, Homo sapiens, UniProt P11802)	94.8%
cGMP-dependent protein kinase 1, isoform beta (PRKG1, Homo sapiens, UniProt Q13976)	99.8%
GRK3 (Homo sapiens, UniProt P35626)	97.4%
STK39 (Homo sapiens, UniProt Q9UEW8)	97.4%
MAPK9 (Homo sapiens, UniProt P45984)	96.4%
CHEK2 (Homo sapiens, UniProt O96017)	62.1%
Protein kinase C beta type, isoform beta-I (PRKCB, Homo sapiens, UniProt P05771)	89.1%
STK10 (Homo sapiens, UniProt O94804)	21.3%
PRKACA (Homo sapiens, UniProt P17612)	92.8%
PRKCA (Homo sapiens, UniProt P17252)	97.1%
CAMKK2 (Homo sapiens, UniProt Q96RR4)	102%
DAPK1 (Homo sapiens, UniProt P53355)	105%
IKBKE (Homo sapiens, UniProt Q14164)	85.8%
Cyclin-dependent kinase 5, with p25 (CDK5, Homo sapiens, UniProt Q00535)	97.8%
DAPK2 (Homo sapiens, UniProt Q9UIK4)	93.3%
IKBKB (Homo sapiens, UniProt O14920)	87.7%
CAMK2D (Homo sapiens, UniProt Q13557)	95.8%

Block 4
Structure (SMILES): C[C@H](NC(=O)c1cnc2n1[C@](C)(Cc1ccc(C#N)cc1)C(=O)N2c1cc(Cl)c(F)c(Cl)c1)C(=O)NC1(c2ccccn2)CC1
Read-out: cell-free assay
Method: competition with immobilised ligand
Tested at: 1 µM
target	remaining binding [%]
PIP4K2C (Homo sapiens, UniProt Q8TBX8)	100
NEK2 (Homo sapiens, UniProt P51955)	95
EPHA4 (Homo sapiens, UniProt P54764)	100
PRKCE (Homo sapiens, UniProt Q02156)	100
HIPK4 (Homo sapiens, UniProt Q8NE63)	100
MAP3K12 (Homo sapiens, UniProt Q12852)	100
DYRK2 (Homo sapiens, UniProt Q92630)	98
Tyrosine-protein kinase ABL1, phosphorylated (ABL1, Homo sapiens, UniProt P00519, H396P)	91
TRPM6 (Homo sapiens, UniProt Q9BX84)	100
BRSK2 (Homo sapiens, UniProt Q8IWQ3)	100
IKBKB (Homo sapiens, UniProt O14920)	90

A few entries again (block 3):
target	remaining activity
CAMK2D (Homo sapiens, UniProt Q13557)	95.8%
IKBKE (Homo sapiens, UniProt Q14164)	85.8%
Tyrosine-protein kinase Lyn, isoform B (LYN, Homo sapiens, UniProt P07948)	16.7%
DAPK1 (Homo sapiens, UniProt P53355)	105%
